Assay results from different studies.
Every numbered part comes from another study and shows a few of its results, in no order. Changes are numbered by the printed parent chain.

Block 1
Target: ABI1, truncated, D143A, DHFR fusion (Arabidopsis thaliana)
Method: DHFR PCA, deep sequencing
Medium: yeast
Setting: methotrexate growth selection, single substitutions
Together with: (+)-ABA 4.8 µM
Relative to: wild-type fitted maximum
Reading: higher = stronger binding
Parent: PYL1, truncated, DHFR fusion (Arabidopsis thaliana); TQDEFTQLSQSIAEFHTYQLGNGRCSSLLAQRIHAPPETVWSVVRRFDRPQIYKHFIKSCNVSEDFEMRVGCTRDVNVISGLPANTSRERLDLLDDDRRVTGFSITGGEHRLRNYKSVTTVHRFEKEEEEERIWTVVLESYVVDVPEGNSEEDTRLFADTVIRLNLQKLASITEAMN; partner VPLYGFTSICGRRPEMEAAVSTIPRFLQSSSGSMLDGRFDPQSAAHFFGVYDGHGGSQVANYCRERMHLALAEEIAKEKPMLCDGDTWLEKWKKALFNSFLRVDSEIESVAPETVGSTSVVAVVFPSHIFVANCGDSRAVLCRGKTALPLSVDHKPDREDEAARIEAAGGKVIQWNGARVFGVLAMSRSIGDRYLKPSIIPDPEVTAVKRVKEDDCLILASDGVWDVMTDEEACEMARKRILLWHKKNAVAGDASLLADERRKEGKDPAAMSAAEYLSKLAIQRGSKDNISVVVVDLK
| Substitution | relative binding score |
| --- | --- |
| V137R | -6.05% |
| L8E | 1.19% |
| L28H | -5.79% |
| T86H | 68% |
| M176W | 63% |
| R32M | 65.4% |
| Y141R | -1.07% |
| Y141S | -7.5% |
| L94C | 13.2% |
| T135D | -0.936% |
| I172T | 34.4% |
| A13M | 64.5% |
| A170Q | 67.7% |
| R24K | 79.1% |
| L28W | 17.8% |
| K116L | -11% |
| D153P | -5.62% |
| D159A | 2.67% |

Block 2
Target: Ras GTPase-activating protein-binding protein 1, full length (G3BP1, Homo sapiens, UniProt Q13283)
Chain of UniProt Q13283 (whole entry, looked up): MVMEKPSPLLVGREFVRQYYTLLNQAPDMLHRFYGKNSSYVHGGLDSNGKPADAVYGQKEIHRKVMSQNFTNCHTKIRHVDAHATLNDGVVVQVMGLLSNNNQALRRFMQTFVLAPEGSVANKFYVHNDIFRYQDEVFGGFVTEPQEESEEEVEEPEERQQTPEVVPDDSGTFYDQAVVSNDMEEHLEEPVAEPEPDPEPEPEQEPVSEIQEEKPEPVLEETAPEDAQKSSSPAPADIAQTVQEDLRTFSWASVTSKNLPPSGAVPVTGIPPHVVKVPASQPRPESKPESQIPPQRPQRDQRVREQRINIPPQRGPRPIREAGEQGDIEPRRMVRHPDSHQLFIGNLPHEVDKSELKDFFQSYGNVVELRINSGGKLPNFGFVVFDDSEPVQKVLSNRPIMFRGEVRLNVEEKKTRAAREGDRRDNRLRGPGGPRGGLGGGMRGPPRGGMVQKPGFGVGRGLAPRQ
Method: RNA Bind-n-Seq
Form: RNA
Medium: in vitro
Tested at: 200 nM
Setting: whole 134-nt RNA, ends assumed
Together with: 150 mM KCl
Relative to: input library
Reading: higher = stronger binding
Constant ends, left off below: GGGAGUUCUACAGUCCGACGAUC … UGGAAUUCUCGGGUGUCAAGG
| Oligonucleotide | log2 enrichment |
| --- | --- |
| GCAGGAAGUAAAAACAAAUGGAAAUGCUUCGGAUAGUGGCAGGGGUGGGGGUUGCUAAGGAAAGGGUGGGAUGGGAGUGGGUAAAGAGGU | 1.18 |
| CCUCAAGUCCUGUGCUACACAUCGUAUGUACCGAAUCGGGCGGGCGGCGGGGAAAGUAUUAUGUUACGCCGUUCGGAUCUGCACUUCCAG | 0.89 |
| CUCAAGUCCUGUGCUACACAUCGUAUGUACCGAAUCGGUUUGGAAAAAGGAGGAAAGUAUUAUGUUACGCCGUUCGGAUCUGCACUUCCA | -0.382 |
| AAGUCCUGUGCUACACAUCGUAUGUACCGAAUCGGAAAAAAAGGAAAGGAAAAAGGAAAGUAUUAUGUUACGCCGUUCGGAUCUGCACUU | -1.24 |
| UGGGAGGUGGAUUUUGUUUAUUUUUUUAGCUCAUUGCCAGGGGUGGGAAUUUUUUUUUAAUAUGUGUCAUGAAUAAAGUUGUUUUUGAAA | 0.108 |
| UGGCCCUGGUGGCAUGCGGGGAUGAAGAGGUGGCCUCAUGGAUCGUGGUGGUCCCGGUGGAAUGUUCAGAGGUGGCCGUGGUGGAGACAG | 0.483 |
| AGUCCUGUGCUACACAUCGUAUGUACCGAAUCGGUUUUUGGGGUUUUUGGUUUUUGGAAAGUAUUAUGUUACGCCGUUCGGAUCUGCACU | -0.968 |
| UCCUGUGCUACACAUCGUAUGUACCGAAUCGGGGUUUUUUGGUUUUUUGGGUUUUUUGGGAAAGUAUUAUGUUACGCCGUUCGGAUCUGC | -0.412 |
| CAAGUCCUGUGCUACACAUCGUAUGUACCGAAUCGGAGGAAAAAAAGGAAAAAGGAAAGUAUUAUGUUACGCCGUUCGGAUCUGCACUUC | -0.721 |
| CUCAAGUCCUGUGCUACACAUCGUAUGUACCGAAUCGGUUUUUGGUUUGGUGGAAAGUAUUAUGUUACGCCGUUCGGAUCUGCACUUCCA | -0.645 |
| CUCAAGUCCUGUGCUACACAUCGUAUGUACCGAAUCGGGCCGGCCGGCCGGGGAAAGUAUUAUGUUACGCCGUUCGGAUCUGCACUUCCA | 0.454 |
| CCUGUGCUACACAUCGUAUGUACCGAAUCGGGUUUUUGGGUUUUUUUGGGAAAAAAAGGGAAAGUAUUAUGUUACGCCGUUCGGAUCUGC | -0.975 |
| UGGCCCUGGUGGCAUGCGGGGAGGAAGAGGUGGCCUCAUGGAUCGUGGUGGUCCCGGUGGAAUGUUCAGAGGUGGCCGUCGUGGAGACAG | 0.179 |
| UGGAUUUUCAAGACACGAAUGCUCGGAGUCUGGCAGAAAGGAAGAGAGAAGAGGAGAAGCAGAAGCACUUGGAUAAAAUUUAUCAAGAAA | -0.436 |

Block 3
Target: CCNF, cyclin fold, Cln2 fusion (human)
Method: yeast growth competition, sequencing
Medium: yeast
Setting: strong parent motif
Relative to: not given
Reading: higher = stronger binding
Parent: BRCA2 docking peptide (human); PSIKRNLLNEFDR
| Substitution | normalised enrichment score |
| --- | --- |
| R13Y | 2.78 |
| I3D | -0.814 |
| P1F | 3.06 |
| E10K | 1.28 |
| E10A | 1.98 |
| L7P | -0.00806 |
| R5A | -0.0836 |
| N6Y | 1.56 |
| R13D | 2.48 |
| L8M | 5.16 |
| K4A | 4.67 |
| P1N | 3.95 |
| N9K | 4.24 |
| I3V | 4.75 |
| S2E | 1.09 |
| D12V | 3.21 |
| P1G | 2.49 |
| R13E | 2.09 |
| P1C | 2.93 |
| N9A | 5.14 |
| L8D | 2.33 |
| S2W | 1.82 |

Block 4
Target: Sal-like protein 4, full length isoform B (SALL4, Homo sapiens, UniProt Q9UJQ4-2, residues 1-616)
Method: universal PBM
Form: double-stranded DNA, one strand shown
Medium: in vitro
Tested at: not given
Setting: 8-mer, flanks averaged, mean of replicates
Reading: higher = stronger binding
| Oligonucleotide | E-score |
| --- | --- |
| AAAATAAG | 0.302 |
| ATTTACGG | 0.202 |
| TCCTACCA | -0.219 |
| ACCTGGGG | -0.37 |
| GGTGAATA | 0.107 |
| CAGGGCGG | -0.22 |
| CACAAGTA | 0.0737 |
| GTCCGGAC | -0.0999 |
| GGCTCCCA | -0.368 |
| CCGCACGC | -0.214 |
| CATCTGCG | -0.0973 |
| AACGTAAG | -0.0191 |
| CAAACAGG | -0.118 |
| GACATGCC | -0.0092 |
| CAGTACTG | -0.229 |
| AACGGCAT | 0.143 |
| TCCCCCCA | -0.1 |
| GACCTCAA | -0.0469 |
| GATTCCGC | -0.131 |
| CAGTGTCG | -0.209 |
| CGATGCAC | -0.189 |
| CCTGCTCC | -0.17 |
| AGAATGCT | 0.0612 |
| CTAAACAC | 0.192 |
| CTCGTGCA | -0.0779 |

Block 5
Target: Histone acetyltransferase KAT6A, both winged helices, GST fusion (KAT6A, Homo sapiens, UniProt Q92794, residues 1-181)
Method: protein binding microarray
Form: double-stranded DNA, one strand shown
Medium: in vitro
Tested at: not given
Setting: 8-mer, flanks averaged, mean of 2 arrays, mostly near background
Relative to: not given
Reading: higher = stronger binding
Residues (chain): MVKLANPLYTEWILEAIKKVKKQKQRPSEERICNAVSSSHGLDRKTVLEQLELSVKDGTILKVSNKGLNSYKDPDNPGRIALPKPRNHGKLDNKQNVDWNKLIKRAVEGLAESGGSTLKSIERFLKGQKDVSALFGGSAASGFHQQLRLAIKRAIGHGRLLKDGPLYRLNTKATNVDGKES
| Oligonucleotide | E-score |
| --- | --- |
| CCTGCAAC | -0.049 |
| GTCAGTCA | -0.0266 |
| GAATCTGC | -0.0299 |
| AAGAGAAA | -0.0171 |
| AGGGTATG | -0.201 |
| CTATATTC | -0.111 |
| TAAAGTGA | -0.124 |
| CGATGCTA | 0.0823 |
| CGTAGCGC | 0.339 |
| ATCATTCG | 0.00914 |
| ACGTGCCG | 0.239 |
| TAGATATA | -0.0472 |
| GATATCCC | 0.114 |
| AGTTGAAT | -0.0153 |
| TGTGCGAA | 0.0131 |
| ATAATCTC | -0.0868 |
| AACCGTGC | 0.0494 |
| CACCCGTC | 0.218 |
| TAAATCGA | -0.0707 |

Block 6
Target: RNA binding protein fox-1 homolog 2, RRM domain, GST-SBP tag (RBFOX2, Homo sapiens, UniProt O43251-10, residues 100-194)
Method: RNA Bind-n-Seq
Form: RNA
Medium: in vitro
Tested at: 365 nM
Setting: natural RNA segment, single round, ends assumed
Relative to: no-protein control
Reading: higher = stronger binding
Constant ends, left off below: GGGAGUUCUACAGUCCGACGAUC … UGGAAUUCUCGGGUGCCAA
Construct (chain): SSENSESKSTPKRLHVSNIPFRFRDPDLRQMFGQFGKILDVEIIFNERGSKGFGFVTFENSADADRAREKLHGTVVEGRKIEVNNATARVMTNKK
| Oligonucleotide | RBNS enrichment (R) |
| --- | --- |
| CUAAAAAGCUCUGAAGUGUUUGUAUAUUUGAAAUACCUCAAUAAAGAGAGAGCUCAUUGACUGUAAAGAGAUGCUGGGGCUUUCUGUACAAGGCUAGCAUCUGGGUGCUG | 0.502 |
| AUGAUGAUGUGCACACAGUCAUUCUACAGGAGCUUUGCACAGCCUUCCUGCAGUUCUCAAAGGGGAGCCUGCAGACUAGGCCUUCAGAGGGUUCCUUCUGUUUCCUAUUU | 0.356 |
| UCACUCCAUCCUGCACUUUACCCACAGGACACCUGGAGGGUCCCCCAGCCCUGCUUGCUUUUGUGAACGUCGUGUGAGUACACCGAGGUGUUGCAGCUUUCCUUCCCUCU | 0.494 |
| AGAACACGAGGGGAACCAGGGGACUUCGAAGGCAAGGUAAUUGUUGUGAAAAGUCUGUAAAUGCUUCUAAUUCUUCCCCCCUCUUAAAAUCAUAAUAGUUGUACAGAAUU | 0.476 |
| AAGCCGGUCAAACUAUAUAAACUCUGGCUCACCUUGCCCAGUGGUGAGGGCUGCCUCUGUGCCAGGAUGCCAAGGACCGCUGCACAUUUCCAAAUUCACAGCAGUGGAUC | 0.309 |
| GAAAUAAAUGUGAUUUUUGUCCGAUCCUUCUGGUUUUCAUGAAGAUUAGCUGCCAUGUUUUAUUCUUAUAAGGAAAAGCACAGAGAUCAUUAAAGUAAGUUUUACAAUAA | 0.373 |
| UCAGAGCAAAGUGAUCCAGAAUGCAACAGGAGCUACCUCCUGUAACCACUACAAUGUCUGUCCUUGGGAAGGUAGCAAGACCUGAAGAUUGGAGAUGUCAGGGUCCAUAA | 8.99 |
| AGAGCACAGAGGCCAGCCCCUCUGUCUAGAAGGCACAUGCAACUAUGGUGUCUGCAUCUCAGCAGAUCUGGUCUGAGGGAGCGAUUCCUGUGUGGCGCCGUCCAUCUGGC | 0.436 |
| UGGUAACAGGAGUGAGUGAGCCCCUCAGACCUGCACUCUGGGUGUCUCCUGCUUUCAAAGGUUCUUAAUAGUGAAUGCUUUAAAAUUAAAGUCAUCACGAAAUGGAAGUU | 0.297 |
| UUUGAAAACUGGGGACCAGUUCCAAAGUCAGUAAUUGUGUUAACCACGUGUAUAACAGCUCUGCUGGACACCCAAGAAAGCCAUGGGAACGCCAACUGGAAAGGUCCCCU | 0.215 |
| GACAUUAAGUAAAAUUUGGAAUCAUAAGUUGCAAUGCAGUAAAAUGGUGCUGGGGAAGGAGCCAGUUAGUGUUUCUGUGAGUUUGUGUUGUGAUGCAAUAAGAGAUAAGU | 1.84 |
| AGUUCUUUGUAUGAUGCACUUUGGACCCACCCUCUCCUCAUGUCACUACUUUGCACACUUCCUCCAUGCUCUCACUUUGAAGGAAGCCUGGAUGAGGCUAGUGACUCUGU | 0.602 |

For quick reference, copied from above (block 5):
| Oligonucleotide | E-score |
| --- | --- |
| AACCGTGC | 0.0494 |
| TAAAGTGA | -0.124 |
| CGTAGCGC | 0.339 |
| GAATCTGC | -0.0299 |
| ACGTGCCG | 0.239 |
| CCTGCAAC | -0.049 |
| AGGGTATG | -0.201 |
| TAGATATA | -0.0472 |
| GATATCCC | 0.114 |
| ATAATCTC | -0.0868 |
| CTATATTC | -0.111 |
| ATCATTCG | 0.00914 |
| GTCAGTCA | -0.0266 |
